Published values from different studies.
Each line is one published result; not all experiments were run side by side. “And” joins repeats or separate records; there may be more than shown. Numbers after ± are the reported error.
Methionyl-tRNA synthetase, putative: Methionyl-tRNA synthetase, putative (Trypanosoma brucei brucei, UniProt Q38C91)
DSTYK: Dual serine/threonine and tyrosine protein kinase (DSTYK, Homo sapiens, UniProt Q6XUX3)
Sequence of UniProt Q6XUX3 (whole entry, looked up): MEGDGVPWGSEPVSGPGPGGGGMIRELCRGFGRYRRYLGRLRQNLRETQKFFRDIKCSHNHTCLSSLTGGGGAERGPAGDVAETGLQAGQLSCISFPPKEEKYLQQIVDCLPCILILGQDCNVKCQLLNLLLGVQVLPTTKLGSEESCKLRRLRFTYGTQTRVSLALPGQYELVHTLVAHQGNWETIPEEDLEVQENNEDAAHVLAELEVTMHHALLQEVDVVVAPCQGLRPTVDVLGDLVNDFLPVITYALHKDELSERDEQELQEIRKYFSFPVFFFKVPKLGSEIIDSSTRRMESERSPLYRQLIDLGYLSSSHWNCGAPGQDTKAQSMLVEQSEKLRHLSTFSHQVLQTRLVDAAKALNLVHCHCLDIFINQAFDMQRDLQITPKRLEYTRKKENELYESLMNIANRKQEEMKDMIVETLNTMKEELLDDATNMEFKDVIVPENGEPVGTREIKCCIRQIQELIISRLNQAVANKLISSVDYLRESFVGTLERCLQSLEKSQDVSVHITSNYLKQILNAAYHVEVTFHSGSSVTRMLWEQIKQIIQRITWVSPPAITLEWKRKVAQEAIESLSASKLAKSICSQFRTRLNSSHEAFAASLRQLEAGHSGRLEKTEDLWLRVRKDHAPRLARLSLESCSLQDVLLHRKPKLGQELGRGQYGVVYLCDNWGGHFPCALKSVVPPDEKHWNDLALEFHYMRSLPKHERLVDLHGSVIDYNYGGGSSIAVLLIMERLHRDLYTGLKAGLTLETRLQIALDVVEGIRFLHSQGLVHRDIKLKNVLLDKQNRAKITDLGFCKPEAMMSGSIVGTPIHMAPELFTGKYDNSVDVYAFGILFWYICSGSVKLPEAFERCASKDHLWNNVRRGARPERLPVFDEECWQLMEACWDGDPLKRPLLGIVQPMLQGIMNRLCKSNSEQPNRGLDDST
Proteasome subunit beta type-9: Proteasome subunit beta type-9 (Homo sapiens, UniProt P28065)
Sequence of UniProt P28065 (whole entry, looked up): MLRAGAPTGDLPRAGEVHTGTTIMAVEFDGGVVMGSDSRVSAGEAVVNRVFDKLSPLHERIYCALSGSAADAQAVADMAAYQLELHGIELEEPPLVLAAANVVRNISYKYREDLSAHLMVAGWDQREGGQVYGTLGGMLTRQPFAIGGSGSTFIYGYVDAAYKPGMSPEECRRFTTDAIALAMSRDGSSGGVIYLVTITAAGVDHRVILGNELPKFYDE
PSMB5: Proteasome Macropain subunit MB1 (PSMB5, Homo sapiens, UniProt P28074)
Sequence of UniProt P28074 (whole entry, looked up): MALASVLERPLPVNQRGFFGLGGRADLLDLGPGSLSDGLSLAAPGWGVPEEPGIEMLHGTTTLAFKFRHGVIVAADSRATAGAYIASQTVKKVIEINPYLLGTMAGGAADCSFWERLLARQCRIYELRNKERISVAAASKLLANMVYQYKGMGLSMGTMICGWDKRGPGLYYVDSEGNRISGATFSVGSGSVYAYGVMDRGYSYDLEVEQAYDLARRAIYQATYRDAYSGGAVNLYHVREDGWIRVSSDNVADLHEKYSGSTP
CELF1 del215-384: CUGBP Elav-like family member 1 (CELF1, Homo sapiens, UniProt Q92879, del215-384)
Sequence of UniProt Q92879 (whole entry, unmodified, looked up): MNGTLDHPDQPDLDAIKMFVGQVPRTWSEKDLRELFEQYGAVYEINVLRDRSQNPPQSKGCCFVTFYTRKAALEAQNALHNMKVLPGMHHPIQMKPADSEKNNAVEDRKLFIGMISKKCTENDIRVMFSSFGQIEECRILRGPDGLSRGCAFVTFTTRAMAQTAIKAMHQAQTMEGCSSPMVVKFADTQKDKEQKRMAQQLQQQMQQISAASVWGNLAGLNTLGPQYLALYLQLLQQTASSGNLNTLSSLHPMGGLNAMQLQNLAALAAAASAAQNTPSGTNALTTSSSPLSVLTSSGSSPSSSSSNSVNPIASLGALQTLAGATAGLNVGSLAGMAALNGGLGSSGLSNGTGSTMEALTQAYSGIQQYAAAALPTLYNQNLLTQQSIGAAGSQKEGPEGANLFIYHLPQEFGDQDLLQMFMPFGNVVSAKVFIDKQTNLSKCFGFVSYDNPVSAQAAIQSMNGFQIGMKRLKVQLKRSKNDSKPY
Integrin alpha-5/beta-1: Integrin alpha-5/beta-1 (Homo sapiens, UniProt P05556+P08648)
Sequence of UniProt P05556 (whole entry, looked up): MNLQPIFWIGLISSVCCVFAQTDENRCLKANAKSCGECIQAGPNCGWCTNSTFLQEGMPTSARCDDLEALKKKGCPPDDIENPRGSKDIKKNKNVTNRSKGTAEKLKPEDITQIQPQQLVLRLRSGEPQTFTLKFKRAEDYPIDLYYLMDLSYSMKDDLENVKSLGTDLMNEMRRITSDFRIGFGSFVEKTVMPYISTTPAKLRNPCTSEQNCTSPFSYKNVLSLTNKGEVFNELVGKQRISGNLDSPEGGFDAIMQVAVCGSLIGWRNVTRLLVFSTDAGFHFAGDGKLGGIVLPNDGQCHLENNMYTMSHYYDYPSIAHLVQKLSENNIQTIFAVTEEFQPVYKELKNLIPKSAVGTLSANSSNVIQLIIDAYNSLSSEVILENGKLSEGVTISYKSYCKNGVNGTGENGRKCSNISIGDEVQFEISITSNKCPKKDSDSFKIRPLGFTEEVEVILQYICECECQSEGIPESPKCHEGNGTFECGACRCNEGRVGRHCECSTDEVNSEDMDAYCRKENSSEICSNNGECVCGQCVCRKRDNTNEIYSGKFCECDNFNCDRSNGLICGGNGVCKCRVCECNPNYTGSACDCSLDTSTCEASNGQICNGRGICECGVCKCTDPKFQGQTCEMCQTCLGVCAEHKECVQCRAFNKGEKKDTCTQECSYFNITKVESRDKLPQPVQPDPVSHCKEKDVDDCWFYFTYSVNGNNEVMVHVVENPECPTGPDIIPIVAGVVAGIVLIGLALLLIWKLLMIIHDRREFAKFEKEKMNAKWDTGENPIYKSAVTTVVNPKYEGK
Sequence of UniProt P08648 (whole entry, looked up): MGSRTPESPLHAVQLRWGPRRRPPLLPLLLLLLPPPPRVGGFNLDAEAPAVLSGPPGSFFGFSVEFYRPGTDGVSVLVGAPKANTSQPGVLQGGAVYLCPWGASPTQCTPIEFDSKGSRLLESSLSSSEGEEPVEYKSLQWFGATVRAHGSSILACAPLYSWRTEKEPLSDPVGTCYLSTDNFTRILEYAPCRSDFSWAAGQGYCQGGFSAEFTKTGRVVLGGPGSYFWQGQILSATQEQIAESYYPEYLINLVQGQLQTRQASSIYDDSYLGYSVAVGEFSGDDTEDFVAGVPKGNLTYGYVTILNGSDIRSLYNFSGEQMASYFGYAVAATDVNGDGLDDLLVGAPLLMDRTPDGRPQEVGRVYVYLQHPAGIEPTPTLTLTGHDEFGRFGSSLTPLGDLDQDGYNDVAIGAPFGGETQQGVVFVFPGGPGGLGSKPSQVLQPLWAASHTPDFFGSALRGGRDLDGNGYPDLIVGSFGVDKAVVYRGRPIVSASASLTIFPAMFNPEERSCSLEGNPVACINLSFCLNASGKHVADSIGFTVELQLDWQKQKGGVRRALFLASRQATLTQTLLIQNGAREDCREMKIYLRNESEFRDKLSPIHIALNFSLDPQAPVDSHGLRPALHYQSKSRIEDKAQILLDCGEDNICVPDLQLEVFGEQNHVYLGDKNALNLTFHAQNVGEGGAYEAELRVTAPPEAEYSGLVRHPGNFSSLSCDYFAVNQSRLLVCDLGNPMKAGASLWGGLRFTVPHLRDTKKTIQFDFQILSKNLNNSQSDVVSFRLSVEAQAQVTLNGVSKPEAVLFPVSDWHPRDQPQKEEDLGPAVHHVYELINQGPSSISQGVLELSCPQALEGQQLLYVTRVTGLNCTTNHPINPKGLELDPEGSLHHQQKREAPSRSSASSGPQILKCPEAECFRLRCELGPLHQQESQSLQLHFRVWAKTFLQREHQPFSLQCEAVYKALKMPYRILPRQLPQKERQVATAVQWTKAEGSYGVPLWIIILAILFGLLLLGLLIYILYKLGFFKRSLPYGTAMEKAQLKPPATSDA
Thymocyte selection-associated high mobility group box protein TOX with KAT7: Thymocyte selection-associated high mobility group box protein TOX, with KAT7 (Homo sapiens, UniProt O94900)
Sequence of UniProt O94900 (whole entry, looked up): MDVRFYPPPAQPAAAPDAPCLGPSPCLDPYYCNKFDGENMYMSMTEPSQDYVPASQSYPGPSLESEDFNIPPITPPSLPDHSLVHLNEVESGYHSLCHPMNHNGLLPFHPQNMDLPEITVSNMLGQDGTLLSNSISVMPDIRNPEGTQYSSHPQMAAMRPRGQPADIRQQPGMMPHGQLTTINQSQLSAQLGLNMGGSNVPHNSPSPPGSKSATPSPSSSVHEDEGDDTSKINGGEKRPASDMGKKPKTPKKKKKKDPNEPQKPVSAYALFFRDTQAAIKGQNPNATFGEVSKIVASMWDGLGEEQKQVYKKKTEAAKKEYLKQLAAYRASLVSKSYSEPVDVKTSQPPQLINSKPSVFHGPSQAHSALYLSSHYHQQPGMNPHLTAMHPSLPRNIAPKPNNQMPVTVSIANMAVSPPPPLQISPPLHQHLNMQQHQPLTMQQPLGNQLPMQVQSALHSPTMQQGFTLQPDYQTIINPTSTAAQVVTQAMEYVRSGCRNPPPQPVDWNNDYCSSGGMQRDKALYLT
CD274 with PD-1: Programmed cell death 1 ligand 1, with PD-1 (CD274, Homo sapiens, UniProt Q9NZQ7)
Sequence of UniProt P32745 (whole entry, looked up): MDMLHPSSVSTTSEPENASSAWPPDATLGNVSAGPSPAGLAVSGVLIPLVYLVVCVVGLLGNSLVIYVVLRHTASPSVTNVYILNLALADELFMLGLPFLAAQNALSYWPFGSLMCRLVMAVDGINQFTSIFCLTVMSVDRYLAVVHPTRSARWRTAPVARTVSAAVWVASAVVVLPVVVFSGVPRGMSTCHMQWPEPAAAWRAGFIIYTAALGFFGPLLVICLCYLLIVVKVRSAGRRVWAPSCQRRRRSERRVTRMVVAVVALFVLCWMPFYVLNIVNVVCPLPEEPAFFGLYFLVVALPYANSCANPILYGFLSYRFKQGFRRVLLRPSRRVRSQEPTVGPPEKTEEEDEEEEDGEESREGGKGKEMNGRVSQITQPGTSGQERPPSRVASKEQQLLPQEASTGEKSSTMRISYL
Sequence of UniProt Q9NZQ7 (whole entry, looked up): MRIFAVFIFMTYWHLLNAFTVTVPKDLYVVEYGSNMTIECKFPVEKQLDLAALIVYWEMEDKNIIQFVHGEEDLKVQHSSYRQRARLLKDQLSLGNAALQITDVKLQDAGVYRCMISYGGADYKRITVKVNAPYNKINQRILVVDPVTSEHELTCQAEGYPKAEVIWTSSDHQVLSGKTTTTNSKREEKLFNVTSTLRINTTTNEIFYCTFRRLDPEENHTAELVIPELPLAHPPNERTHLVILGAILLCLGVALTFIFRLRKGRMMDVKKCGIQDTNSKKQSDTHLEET

Compound	target	assay	system	setting	how to read	IC50
C[C@@H](CNCc1cc(Cl)cc(Cl)c1)CNc1nc2cccnc2[nH]1	Methionyl-tRNA synthetase, putative	enzyme activity, inhibitor				< 10 nM
CNC(=S)NCCCC[C@H](NS(=O)(=O)c1ccc(C(=O)NCc2cn(CCCNc3ccc([N+](=O)[O-])c4nonc34)nn2)cc1)C(=O)N[C@@H](CCCNC(=N)N)C(=O)N[C@@H](CC1CCCCC1)C(N)=O	NAD-dependent protein deacetylase sirtuin-3, mitochondrial (SIRT3, Homo sapiens, UniProt Q9NTG7)	enzyme activity, inhibitor, fluorescence				370 nM
C[C@@H](O)[C@@H]1NC(=O)[C@H](CCCCN)NC(=O)[C@@H](Cc2c[nH]c3ccccc23)NC(=O)[C@H](Cc2ccc(NC(N)=O)cc2)NC(=O)[C@H](NC(=O)[C@H](Cc2ccccc2)NC(N)=O)CSSC[C@@H](C(=O)N[C@@H](Cc2ccc3ccccc3c2)C(N)=O)NC1=O	Somatostatin receptor type 3 (SSTR3, Homo sapiens, UniProt P32745)	radioligand binding, inhibitor, competitive radioligand displacement		cloned receptor		111 nM and 293 nM
Clc1cc(Cl)cc(CNCCCNc2nc3ncccc3[nH]2)c1	Methionyl-tRNA synthetase, putative	enzyme activity, inhibitor				< 10 nM
Fc1ccc(Nc2nc(NC3CCCCC3)c3cc(C(F)(F)F)ccc3n2)cc1F	Beta-2 adrenergic receptor (ADRB2, Homo sapiens, UniProt P07550, T164V)	β-arrestin2 recruitment, antagonist, BRET	HEK293	mutant T164V, with: isoprenaline 1 µM		100 nM
CCn1nc(Cl)c2c1-c1cnc(N)c(c1)O[C@H](C)c1cc(F)ccc1-c1nn(C)cc1C2	DSTYK	enzyme activity, inhibitor, radiometric				250 nM
CCCCCCCCN(Cc1ccc(CNC(=O)OCCOC23CC4CC(C2)CC(C(N)C(=O)N2C(C#N)CC5CC52)(C4)C3)cc1)CC(O)C(O)C(O)C(O)CO (stereo not drawn)	Dipeptidyl peptidase 9 (DPP9, Homo sapiens, UniProt Q86TI2)	enzyme activity, inhibitor				561 nM
CN1CCN(c2ccc(-c3cncc(Cl)c3N3CCC4(CCNC4=O)CC3)cc2)CC1	Cyclin-dependent kinase 19, with cyclin C (CDK19, Homo sapiens, UniProt Q9BWU1)	ligand displacement				4 nM
CCOc1cc(CN2CCC3(CC2)CN(c2ccc(C(=O)O)cc2)C(=O)N3)c(C2CC2)cc1C	Somatostatin receptor type 5 (SSTR5, Homo sapiens, UniProt P35346, W190A)	cAMP level, agonist, GloSensor	AD293	W190A mutant, with: CST17 EC80 and forskolin		0.288 nM
CC(C)C[C@H](NC(=O)[C@H](Cc1ccc(CN)cc1)NC(=O)[C@H](Cc1ccccc1)N=[N+]=[N-])C(=O)N[C@@H](CC1CCCC2CCCCC21)C(=O)[C@@]1(C)CO1 (stereo partly drawn)	Proteasome subunit beta type-9	competitive ABPP	Raji cell lysate			> 10000 nM
C[C@@H](CNCc1cc(Cl)cc(Cl)c1)CNc1nc2nc(F)ccc2[nH]1	Methionyl-tRNA synthetase, putative	enzyme activity, inhibitor				< 10 nM
CO[C@@H]1[C@@H](OC(=O)c2ccc(C)[nH]2)[C@@H](O)[C@H](Oc2ccc3c(O)c(NC(=O)c4c[nH]c(C(=O)Nc5c(O)c6ccc(O[C@@H]7OC(C)(C)[C@H](OC)[C@@H](OC(=O)c8ccc(C)[nH]8)[C@H]7O)c(C)c6oc5=O)c4C)c(=O)oc3c2C)OC1(C)C	human CMG helicase	helicase activity		with: ATP 0.5 mM		13800 nM
O=C(Nc1ccccc1)Nc1ccccc1O	SRSF protein kinase 3 (SRPK3, Homo sapiens, UniProt Q9UPE1)	enzyme activity, inhibitor, FRET				6500 nM
Cc1nn(-c2cccc(N)c2)c(=O)c2cnc(Nc3ccc(N4CCNCC4)cc3)nc12	Protein kinase C beta type, isoform beta-II (PRKCB, Homo sapiens, UniProt P05771)	inhibitor		PKCβII isoform		3120 nM
CC(C)C[C@H](NC(=O)[C@H](CC(N)=O)NC(=O)[C@H](CC(N)=O)NC(=O)[C@H](CO)NC(=O)[C@H](CO)NC(=O)[C@H](CCCNC(=N)N)NC(=O)[C@@H](NC(=O)[C@H](CC(C)C)NC(=O)[C@H](Cc1ccccc1)NC(=O)[C@H](CC(N)=O)NC(=O)[C@H](C)NC(=O)[C@H](CC(C)C)NC(=O)[C@H](CCCNC(=N)N)NC(=O)[C@H](CCC(N)=O)NC(=O)[C@@H](NC(=O)[C@H](C)NC(=O)[C@@H]1CSSC[C@H](NC(=O)[C@@H](N)CCCCN)C(=O)N[C@@H](CC(N)=O)C(=O)N[C@@H]([C@@H](C)O)C(=O)N[C@@H](C)C(=O)N[C@@H]([C@@H](C)O)C(=O)N1)[C@@H](C)O)C(C)C)C(=O)NCC(=O)N1CCC[C@H]1C(=O)N[C@H](C(=O)N[C@@H](CC(C)C)C(=O)N1CCC[C@H]1C(=O)N1CCC[C@H]1C(=O)N[C@H](C(=O)N[C@@H](CC(N)=O)C(=O)N[C@H](C(=O)NCC(=O)N[C@@H](CO)C(=O)N[C@@H](CC(N)=O)C(=O)N[C@H](C(=O)N[C@@H](Cc1ccc(O)cc1)C(N)=O)[C@@H](C)O)C(C)C)[C@@H](C)O)C(C)C	PSMB5	chymotrypsin-like activity, inhibitor	purified 20S proteasome	with: Suc-LLVY-AMC		~100 nM
O=C1c2cccc3cccc(c23)C(=O)N1Cc1nc2ccccc2[nH]1	Kelch-like ECH-associated protein 1 (KEAP1, Homo sapiens, UniProt Q14145)	enzyme activity, inhibitor, fluorescence				36.7 nM
Sc1nc[nH]n1	CELF1 del215-384	CELF1-RNA binding, inhibitor, fluorescence polarization		CELF1 20 nM, with: RNA 10 nM		980 ± 110 nM
COc1ccc(-c2cc(Cl)c(C(=O)N[C@@H](CNC(=O)CNC(=O)c3cccc(NC(=N)N)c3)C(=O)O)c(Cl)c2)cc1	Integrin alpha-5/beta-1	cell adhesion, inhibitor	SW480	with: fibronectin 0.3 µg/mL		5.01 nM

Compound	target	assay	system	setting	how to read	IC50
CC(C)C[C@H](NC(=O)[C@H](Cc1ccc(CN)cc1)NC(=O)[C@H](Cc1ccccc1)N=[N+]=[N-])C(=O)N[C@H](C(=O)[C@@]1(C)CO1)C1CCCCC1	PSMB5	competitive ABPP	Raji cell lysate			> 10000 nM
N#Cc1c(N)nc2c(c1-c1ccccc1)Cc1cc(O)ccc1-2	Thymocyte selection-associated high mobility group box protein TOX with KAT7	TOX-KAT7 binding, inhibitor, ELISA			no inhibition at 10 µM	> 10000 nM
Cc1ccc2nc(C)n(/N=C/c3ccc(C(=O)O)cc3)c(=O)c2c1	Phospholipase A2, membrane associated (Homo sapiens, UniProt P14555)	enzyme activity, inhibitor, colorimetric				101000 ± 6160 nM
C[C@H](CCC(=O)NCCS(=O)(=O)O)[C@H]1CC[C@H]2[C@@H]3CC[C@@H]4C[C@H](OS(=O)(=O)O)CC[C@]4(C)[C@H]3CC[C@]12C	Electrogenic aspartate/glutamate antiporter SLC25A13, mitochondrial (SLC25A13, Homo sapiens, UniProt Q9UJS0)	aspartate/glutamate exchange	proteoliposomes	1 min, with: [14C]Asp 1 mM, Glu 20 mM inside		117000 ± 14500 nM
Cc1ccc(S(=O)(=O)N/N=C/c2ccsc2B(O)O)cc1	Prothrombin (F2, Homo sapiens, UniProt P00734)	enzyme activity, inhibitor				> 100000 nM
CS(=O)(=O)c1ccc(-c2cc(Cl)c(C(=O)N[C@@H](CNC(=O)CNC(=O)c3cccc(NC(=N)N)c3)C(=O)O)c(Cl)c2)cc1	Integrin alpha-5/beta-1	cell adhesion, inhibitor	SW480	with: fibronectin 0.3 µg/mL		3.98 nM
Cc1c(COc2cc(OCc3cccc(C#N)c3)c(CN3CCCC[C@H]3C(=O)O)cc2Cl)cccc1-c1cccc(OCCCCCC(=O)NO)c1	CD274 with PD-1	PD-1/PD-L1 binding, inhibitor, HTRF				77.4 nM
C[C@@H]1Cc2c([nH]c3ccccc23)[C@@H](c2c(F)cc(/C=C/C(=O)O)cc2F)N1C12CC(C1)C2	Mineralocorticoid receptor (NR3C2, Homo sapiens, UniProt P08235)	MR receptor activity, agonist, cell-based				> 10000 nM
Cc1c(COc2cc(OCc3cccc(C#N)c3)c(CN3CCCC[C@@H]3C(=O)O)cc2Cl)cccc1-c1cccc(OCCCCCCC(=O)NO)c1	CD274 with PD-1	PD-1/PD-L1 binding, inhibitor, HTRF				88.1 nM
CN1CCC[C@@H]1C(=O)N[C@@H](Cc1ccc(-c2ccccc2)cc1)B(O)O	20S proteasome beta subunits, part β2 subunit (Plasmodium falciparum, UniProt Q8I261+Q8I6T3)	β2 activity, inhibitor		with: Ac-WLR-AMC		> 10000 nM
CCN(CC)CC(=O)Nc1cccc(-n2cc(-c3ccc4ccc(-c5cn(-c6cccc(NC(=O)CN(CC)CC)c6)nn5)cc4c3)nn2)c1	cAMP-dependent protein kinase catalytic subunit alpha (PRKACA, Homo sapiens, UniProt P17612)	enzyme activity, inhibitor				> 10000 nM
Nc1nc2nc[nH]c2c(=S)[nH]1	CELF1 del215-384	CELF1-RNA binding, inhibitor, fluorescence polarization		20 nM CELF1, with: 10 nM RNA		18700 ± 5180 nM
Nc1ncc2c(n1)-c1c([nH]c3ccc(C#CC4CC4)cc13)CCCC2	DSTYK	enzyme activity, inhibitor, radiometric				6400 nM
Cc1cc(C(=O)N(CC(=O)Nc2ccccc2F)Cc2ccc(Cl)cc2)ccc1S(N)(=O)=O	Carbonic anhydrase 9 (CA9, Homo sapiens, UniProt Q16790)	enzyme activity, inhibitor				12.9 nM
CC(C)C[C@H](NC(=O)[C@H](Cc1ccc(CN)cc1)NC(=O)[C@H](Cc1ccccc1)N=[N+]=[N-])C(=O)N[C@@H](CC1CCC(C2CCCCC2)CC1)C(=O)[C@@]1(C)CO1 (stereo partly drawn)	Proteasome subunit beta type-9	competitive ABPP	Raji cell lysate			> 10000 nM
COc1ccc2c(c1)Cc1c-2nc(N)c(C#N)c1-c1ccc(CO)o1	Thymocyte selection-associated high mobility group box protein TOX with KAT7	TOX-KAT7 binding, inhibitor, ELISA			no inhibition at 10 µM	6700 nM
CCCCCCCCCCCCCC(=S)NCCCC[C@H](NS(C)(=O)=O)C(=O)N[C@@H](C)C(=O)N[C@@H](CCCNC(=N)N)C(N)=O	NAD-dependent protein deacetylase sirtuin-1 (SIRT1, Homo sapiens, UniProt Q96EB6)	enzyme activity, inhibitor, HPLC				2300 nM
C[S+]([O-])CCC/C(=N\OS(=O)(=O)O)S[C@@H]1O[C@H](CO)[C@@H](O)[C@H](O)[C@H]1O (stereo partly drawn)	Tyrosine-protein phosphatase non-receptor type 1 (PTPN1, Homo sapiens, UniProt P18031)	enzyme activity, inhibitor, absorbance				9170 nM
